# Assay results collected from several papers.
# Lines come from different studies, so protocols differ.
# Target: Casein kinase I isoform gamma-1 (CSNK1G1, Homo sapiens, UniProt Q9HCP0)
# Chain of UniProt Q9HCP0 (whole entry, looked up): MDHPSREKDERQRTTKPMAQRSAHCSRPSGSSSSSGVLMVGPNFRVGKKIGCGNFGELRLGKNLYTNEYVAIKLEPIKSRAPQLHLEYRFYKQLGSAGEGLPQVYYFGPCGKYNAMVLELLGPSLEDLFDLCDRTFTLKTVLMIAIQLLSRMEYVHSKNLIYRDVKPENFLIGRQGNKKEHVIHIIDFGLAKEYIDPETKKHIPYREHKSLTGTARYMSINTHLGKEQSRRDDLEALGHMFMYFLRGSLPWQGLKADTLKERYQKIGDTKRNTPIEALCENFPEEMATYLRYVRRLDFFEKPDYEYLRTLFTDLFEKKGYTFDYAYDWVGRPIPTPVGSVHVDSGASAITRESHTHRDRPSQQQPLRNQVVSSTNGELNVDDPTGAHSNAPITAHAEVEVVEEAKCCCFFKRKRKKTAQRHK
SMILES,test,setting,how to read,quantity,value
O=C(NC1CCC1)c1ccc2nc(-c3cccc(NS(=O)(=O)NCCN4CCCCC4)c3)cn2c1,enzyme activity,10 µM,,remaining activity,95%
C[C@@H](c1ccc(-n2cnc3c(N)ncnc32)cc1)N1CCc2nn(C)c(Cc3ccccc3)c2C1=O,KINOMEscan,0.1 µM,reference: DMSO control,remaining binding,95%
CCCOc1ccc(OC)c(F)c1C(=O)c1ccc(C(=O)N[C@@H]2CNC[C@H]2NC(=O)c2ccc3[nH]ncc3c2)cc1,enzyme activity,10 µM,,remaining activity,55%
C=CC(=O)N1CCC(COCC(=O)N2CCN(c3nc(-c4cnc(N)nc4C(F)F)nc(N4CCOC[C@@H]4C)n3)CC2)CC1,KINOMEscan,1 µM,reference: DMSO control,remaining binding,100%
Cc1cc(Nc2cc(N3CCN(C)CC3)nc(Sc3ccc(NC(=O)C4CC4)cc3)n2)[nH]n1,"kinase activity, KinaseProfiler","0.03 µM, species human",reference: control,remaining activity,105%
C1=C/COCc2cc(ccc2OCCN2CCCC2)Nc2nccc(n2)-c2cccc(c2)COC/1,,concentration not given,,percent of control,72%
CCN(CC)c1ccc(C2=NNC(=O)CC2C)cc1[N+](=O)[O-] (stereo not shown),"enzyme activity, inhibitor",10 µM,reference: vehicle,remaining activity,107%
COc1cc(-c2cncc3c2CN(C)Cc2cc(N4CCNCC4)ccc2-3)cc(OC)c1OC,kinase activity,"1 µM, human enzyme, with: ATP 10 µM",reference: DMSO control,remaining activity,96%
COc1cc(F)ccc1-c1ncnc(Nc2cccc(C[S@](C)(=N)=O)c2)n1,kinase activity,"10 µM, with: 10 µM ATP",,remaining activity,99%
C=CC(=O)N1CCC(C(=O)NCC(=O)N2CCN(c3nc(-c4cnc(N)nc4C(F)F)nc(N4CCOCC4)n3)CC2)CC1,KINOMEscan,1 µM,,remaining binding,99%
